# Results from different studies.
# Each line is one published result; not all experiments were run side by side. “And” joins repeats or separate records; there may be more than shown. ± marks the error that the study gave.
Structure (SMILES),assay,system,setting,scale,endpoint,value
O=C1c2sc(-c3ccc(N4CCC(F)C4)nc3F)nc2CCN1c1cccnc1 (centres unmarked),,"CD1 mouse, plasma","i.v., dose not given, 1.25 h",,concentration,0.0163 µg/mL and 0.0114 µg/mL and 0.0135 µg/mL
N#C[C@@H]1CC(F)(F)CN1C(=O)CNC(=O)c1ccnc2c(NC(=O)CCOCCOCCOCCOCCOCCOCCNC(=O)C(CCCCNC(=O)CN3CCN(CC(=O)[O-])CCN(CC(=O)[O-])CCN(CC(=O)[O-])CC3)NC(=O)CCCc3ccc(I)cc3)cccc12.[68Ga+3] (some centres unmarked),,PBS,"60 min, 37 °C, 68Ga-labelled",,radiochemical stability,99.12 ± 0.6%
CCCCN1C(=O)c2cccc3c(NCCCN4CCOCC4)ccc(c23)C1=O,,dichloromethane,,,fluorescence lifetime,10.3 ns
O=C1c2sc(-c3ccc(N4CCC(CO)CC4)nc3F)nc2CCN1c1cccnc1,,"CD1 mouse, plasma","i.v., dose not given, 0.033 h",,concentration,1.86 µg/mL and 1.29 µg/mL and 1.46 µg/mL
Cn1cnc([N+](=O)[O-])c1Sc1ccccc1C(=O)NCCC(N)=O,LC-MS/MS,"CD-1 mouse, CD-1 mouse blood","1 µM, 15 min",,remaining compound,76.3%
CC(C)Cc1ccc(C(C)C(=O)NC(CCCCNC(=O)CCOCCOCCOCCOCCOCCOCCNC(=O)CN2CCN(CC(=O)[O-])CCN(CC(=O)[O-])CCN(CC(=O)[O-])CC2)C(=O)Nc2cccc3c(C(=O)NCC(=O)N4CC(F)(F)C[C@H]4C#N)ccnc23)cc1.[68Ga+3] (some centres unmarked),,PBS,"30 min, 37 °C, 68Ga-labelled",,radiochemical stability,99.9 ± 0.6%
CN1CCN(C(=S)N/N=C/c2ccccc2O)CC1,,plasma,"intravenous, 30 mg/kg",,AUC(0-t),2.96 ± 0.369 µg·h/mL
CN(Cc1cc(C2CC2)on1)C(=O)c1cccc(-c2ccc(F)cc2)c1,,"male ICR/CD-1 mouse, liver microsomes","2 µM, 30 min, pH 7.5, without ABT",,remaining compound,18.1%
O=C(Nc1cnccc1-c1ccc([18F])nc1)c1ccnc(NC(=O)C2CC2)c1,,"FVB/NJ mice (both sexes), liver","intravenous, dose not given, 120 min",,SUV,6.47
COc1ccc(C(N)=O)cn1,,"Han Wistar rats, male, plasma","oral, 30 mg/kg, 8.00 h",,plasma concentration,0.0798 µM
[11CH3]N1CCC(NC(=O)c2cc(-c3c(O)cc(O)cc3Oc3ccc([N+](=O)[O-])cc3)on2)CC1,,"healthy female Wistar rats, blood","intravenous, 2 min",,standardized uptake value,2.5 ± 0.2 g/mL
CCCCN1C(=O)c2cccc3c(NCCCCCCN4CCOCC4)ccc(c23)C1=O,,toluene,,,Stokes shift,76 nm
C/C(N)=N/C(=N\S(=O)(=O)c1ccc(C(F)(F)F)cc1)N1C[C@H](c2ccccc2)C(c2ccc(Cl)cc2)=N1,,"male C57BL/6 mouse, muscle","intravenous, 10 mg/kg",,Cmax,3.76 µg/mL
Cc1cc(C(=O)NC(C)(C)CO)cc(C)n1,LC-MS metabolite profiling,"Sprague-Dawley rat, both sexes, plasma","oral, 100 mg/kg of parent drug, 24 (unit not given)",higher = more metabolite,plasma peak area,15300 a.u.
OCC1OC(n2cnc3c(NCc4ccc(Br)s4)ncnc32)C(O)C1O (centres unmarked),equilibrium dialysis,human plasma,"5 µg/mL, 4 h, pH 7.4",,fraction unbound,0.147
CC[C@H](C)[C@H](NC(=O)[C@H](CCCNC(=N)N)NC(=O)[C@H](Cc1c[nH]cn1)NC(=O)[C@@H](N)[C@@H](C)O)C(=O)N[C@@H](CC(C)C)C(=O)N[C@@H](CCCNC(=N)N)C(=O)N[C@@H](CCCNC(=N)N)C(=O)N[C@@H](CC(C)C)C(=O)N[C@@H](Cc1ccccc1)C(=O)N[C@@H](CC(N)=O)C(=O)N[C@@H](CC(C)C)C(=O)N[C@@H](CS)C(N)=O,,male C57BL/6J mouse,"intraperitoneal, 10 mg/kg, 1 min",,brain concentration,0.0017 µM
CCCCN1C(=O)c2cccc3c(NCCCCN4CCOCC4)ccc(c23)C1=O,,dioxane,,,Stokes shift,79 nm
COc1cccc(OC)c1-c1cc(C(=O)NC2(C(=O)O)C3CC4CC(C3)CC2C4)nn1-c1ccc(C(=O)NCCNC(=O)[C@H](CCCCNC(=O)[C@H](CC(C)C)NC(=O)C2OC2C(=O)O)NC(=O)CN2CCN(CC(=O)[O-])CCN(CC(=O)[O-])CCN(CC(=O)[O-])CC2)cc1C(C)C.[177Lu+3] (mixture of isomers),,"mouse, HT-29 xenograft, HT-29 tumour",4 h post injection,,tissue uptake,11.6 %ID/g
CCCCCCCOc1ccc(CC[C@](N)(CO)COP(=O)(O)O)cc1C(F)(F)F,,"healthy men, urine and plasma","oral, 0.75 mg once daily, day 21, fed state",,renal clearance,0.0255 mL/min
COc1ccc2c(c1)CCn1c[n+]3c(c1-2)-c1ccc(OC)cc1CC3,,"female NSG mice, blood","6 mg/kg, day 7, 5 days per week",,Hematocrit,41.3 ± 2.33%
O=C(O)CCCOc1ccc([18F])cc1-c1cc(-c2ccccc2C(F)(F)F)n(-c2ccccc2)n1,"OLINDA/EXM from mouse data, measured: stomach wall",human adult,,,absorbed dose,12.7 µGy/MBq
COCC1CN(C2CCN(c3cc(OC)c(Nc4ncc(Br)c(Nc5ccc6c(c5P(C)(C)=O)OCCO6)n4)cc3C)CC2)C1,,"EGFR-mutant NSCLC patients, plasma","oral, 60 mg single dose, geometric mean",,AUC(0-t),11.1 µg·h/mL
C=CC(=O)Nc1cc(Nc2nccc(-c3c[nH]c4ccccc34)n2)c(OC)cc1N(C)CCN(C)C,,human plasma,"72 h, storage stability, medium QC sample",,recovery,51.6%
CCCN(C)c1cc(C(F)(F)F)nc(SCCC(=O)NCc2ccco2)n1,,"Wistar rat, plasma","intraperitoneal, 25 mg/kg, 2 h post-dose",relative to: vehicle control,plasma urea,no effect
CC(C)[C@H](NC(=O)[C@H](Cc1c[nH]c2ccccc12)NC(=O)[C@H](CCCNC(=N)N)NC(=O)[C@H](CCCNC(=N)N)NC(=O)[C@@H](NC(=O)[C@@H](NC(=O)[C@H](CCCNC(=N)N)NC(=O)[C@@H](NC(=O)[C@@H](NC(=O)[C@H](CCCNC(=N)N)NC(=O)[C@H](CCCNC(=N)N)NC(=O)[C@@H](NC(=O)[C@H](Cc1c[nH]c2ccccc12)NC(=O)[C@H](CCCNC(=N)N)NC(=O)[C@H](CCCNC(=N)N)NC(=O)[C@@H](NC(=O)[C@H](CCCNC(=N)N)NC(=O)[C@H](CCCNC(=N)N)NC(=O)[C@@H](NC(=O)[C@H](Cc1c[nH]c2ccccc12)NC(=O)[C@H](CCCNC(=N)N)NC(=O)[C@@H](N)CCCNC(=N)N)C(C)C)C(C)C)C(C)C)C(C)C)C(C)C)C(C)C)C(C)C)C(=O)N[C@@H](CCCNC(=N)N)C(=O)N[C@@H](CCCNC(=N)N)C(=O)O,,"CD1 mouse, plasma","intravenous, 15 mg/kg, 16 h, [14C]-labelled compound",,sodium,157 mEq/L
CCCCN1C(=O)c2cccc3c(NCCCCCN4CCOCC4)ccc(c23)C1=O,,ethyl acetate,,,Stokes shift,80 nm
CC(C)(O)c1ncc([S@](N)(=O)=NC(=O)Nc2c3c(cc4c2CCC4)CCC3)s1,measured: Cardiac disorders,healthy human volunteers,"oral, dose not given, single dose, all active arms",,subjects with adverse events,2%
C=C(NC(=O)c1csc(-c2nc3c(cc2O)-c2nc(cs2)C(=O)NC(C(C)O)C(=O)NC(=C(C)OC)c2nc(cs2)C(=O)NC2c4nc(cs4)C(=O)NC(COC(=O)c4c5c6c(cccc6n4O)COC(=O)C(OC4CC(C)(O)C(N(C)C)C(C)O4)C2OC5)c2nc-3cs2)n1)C(N)=O (centres unmarked),,"cynomolgus monkey, plasma","intravenous, 9 mg/kg, single dose, infusion",,Tmax,19.2 min
CC(=O)N([O-])CCCCCNC(=O)CCC(=O)N([O-])CCCCCNC(=O)CCC(=O)N([O-])CCCCCN.[89Zr+4],radio-TLC,aqueous buffer,"7 d, pH 7.2, 37 °C, 89Zr-labelled complex, with: FeCl3 100-fold excess",,intact complex,33.8 ± 1.6%
[123I]c1ccc2nc(-c3ccc(-n4ccnn4)nc3)cn2c1,,"male Wistar rat, spleen","intravenous, 4 MBq, 3 h",,tracer uptake,0.055 %ID/g
C[C@@]1(c2nc(-c3ccc(F)c4cn[nH]c34)no2)CCCN(C(=O)c2ccc(F)nc2)C1,,"C57BL/6J mice, male, plasma","intraperitoneal, 20 mg/kg",,clearance,1.78 L/h/kg
CN1CCCNC(=O)c2cccc(c2)C(=O)NCCCN(C)CCCNc2cccc3c2C(=O)c2cccc(c2C3=O)NCCC1,,"mice, serum",dose not given,,uric acid,2.37 mg/dL

# Some of these lines once more:
Structure (SMILES),assay,system,setting,scale,endpoint,value
COCC1CN(C2CCN(c3cc(OC)c(Nc4ncc(Br)c(Nc5ccc6c(c5P(C)(C)=O)OCCO6)n4)cc3C)CC2)C1,,"EGFR-mutant NSCLC patients, plasma","oral, 60 mg single dose, geometric mean",,AUC(0-t),11.1 µg·h/mL
Cc1cc(C(=O)NC(C)(C)CO)cc(C)n1,LC-MS metabolite profiling,"Sprague-Dawley rat, both sexes, plasma","oral, 100 mg/kg of parent drug, 24 (unit not given)",higher = more metabolite,plasma peak area,15300 a.u.
C=C(NC(=O)c1csc(-c2nc3c(cc2O)-c2nc(cs2)C(=O)NC(C(C)O)C(=O)NC(=C(C)OC)c2nc(cs2)C(=O)NC2c4nc(cs4)C(=O)NC(COC(=O)c4c5c6c(cccc6n4O)COC(=O)C(OC4CC(C)(O)C(N(C)C)C(C)O4)C2OC5)c2nc-3cs2)n1)C(N)=O (centres unmarked),,"cynomolgus monkey, plasma","intravenous, 9 mg/kg, single dose, infusion",,Tmax,19.2 min
COc1ccc(C(N)=O)cn1,,"Han Wistar rats, male, plasma","oral, 30 mg/kg, 8.00 h",,plasma concentration,0.0798 µM
CCCCN1C(=O)c2cccc3c(NCCCN4CCOCC4)ccc(c23)C1=O,,dichloromethane,,,fluorescence lifetime,10.3 ns
